Measurements collected from several papers.
A part holds a random share of what one study measured. Positions count from the first letter of the parent shown.

Study 1 — target: CCNA1, cyclin fold, Cln2 fusion (human); technique: yeast growth competition, sequencing; matrix: yeast; notes: weak parent motif; relative to: not given; direction: higher = stronger binding
Starting sequence: ORC1 docking peptide (human); PRARKRLELGNLG; partner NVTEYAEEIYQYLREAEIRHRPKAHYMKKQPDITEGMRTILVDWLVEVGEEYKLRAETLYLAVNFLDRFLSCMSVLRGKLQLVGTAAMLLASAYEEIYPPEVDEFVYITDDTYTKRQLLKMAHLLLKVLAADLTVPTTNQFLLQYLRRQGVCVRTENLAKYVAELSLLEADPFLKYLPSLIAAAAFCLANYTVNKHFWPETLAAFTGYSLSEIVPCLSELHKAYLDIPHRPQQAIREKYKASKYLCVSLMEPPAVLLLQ
| Variant | normalised enrichment score |
| --- | --- |
| L9I | 0.448 |
| G13I | -0.204 |
| N11M | 0.69 |
| G10Q | 0.377 |
| E8A | 0.417 |
| R4T | 0.438 |
| K5C | 0.438 |
| P1F | 0.264 |
| L12V | 0.732 |

Study 2 — technique: Spec-seq; form: double-stranded DNA, one strand shown; matrix: in vitro; concentration: not given; notes: whole probe, mean of replicates; relative to: not given; direction: lower = stronger binding; all sequences stand within: GAGTCGTCTCGTCAGCAC … CCGTAGAGCACTCAGGTC
Target: Transcription factor SOX-2, HMG box (Sox2, Mus musculus, UniProt P48432, residues 41-119)
Chain of UniProt P48432 (41-119, looked up): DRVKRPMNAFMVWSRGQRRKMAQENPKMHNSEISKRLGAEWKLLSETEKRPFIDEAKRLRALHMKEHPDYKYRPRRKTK
| Sequence | relative binding energy [ln ratio] |
| --- | --- |
| GTCGGTT | 1.48 |
| CTTAGTT | -0.288 |
| CATGACC | 0.317 |
| CGTCGTT | 1.19 |
| TCCAGTT | 0.553 |
| TGGAGTT | 1.01 |

Study 3 — technique: DHFR PCA, deep sequencing; matrix: yeast; with: (+)-ABA 1.4 µM; relative to: wild-type fitted maximum; direction: higher = stronger binding
Target: ABI1, truncated, D143A, DHFR fusion (Arabidopsis thaliana)
Notes: methotrexate growth selection, single substitutions
Starting sequence: PYL1, truncated, DHFR fusion (Arabidopsis thaliana); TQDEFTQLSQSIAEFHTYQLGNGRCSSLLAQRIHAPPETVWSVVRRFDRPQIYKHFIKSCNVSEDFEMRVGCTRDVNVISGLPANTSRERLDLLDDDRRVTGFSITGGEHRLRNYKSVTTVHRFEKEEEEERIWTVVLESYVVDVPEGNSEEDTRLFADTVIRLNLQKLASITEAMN
| Variant | relative binding score [%] |
| --- | --- |
| T119S | 0.967 |
| D97C | 40.9 |
| R99N | 7.6 |
| F103A | -5.4 |
| V43K | -4.25 |
| L8G | -3.93 |
| S11D | 62 |
| T73W | 36.3 |

Further values, each from its own experiment
| Substance | target | test | system | setting | how to read | endpoint | value |
| --- | --- | --- | --- | --- | --- | --- | --- |
| PhoQ, residues 284 288 289 292 302 303 SLKLQV | PhoP, residues 12 14 15 18 19 LYFRQ (Escherichia coli, UniProt P23836) | Sort-seq, item: YFP reporter | E. coli | PhoQ-PhoP variant library, with: 10 µM Mg2+ | relative to: high Mg2+ state, higher = stronger signaling | fold induction | 0.666 |

Some of these lines once more (study 3):
| Variant | relative binding score [%] |
| --- | --- |
| S11D | 62 |
| R99N | 7.6 |
